Measurements pooled from the literature.
Each line is one published result; not all experiments were run side by side. “And” joins repeats or separate records; there may be more than shown. ± marks the error that the study gave.

`C[C@H](Oc1ccc(Br)cc1-c1ccon1)C(=O)O` — result for “difference from placebo”: 0.128 mV (mean CMAP amplitude; human, tibialis anterior muscle; 100 mg, SAD).
The IC15 of `COc1c(C)c2c(c(O)c1C/C=C(\C)CCC(=O)OCCN1CCOCC1)C(=O)OC2` is reported as greater than 100 µM (barrier function (TEER); human ileal GI microtissue EpiIntestinal-FT).
Under “serum uric acid”, `O=C(NS(=O)(=O)c1cc(F)cc(F)c1)c1cc2ccccc2n1Cc1ccc(Br)c2ccccc12` is recorded as 589 µM and 618 µM and 452 µM and 708 µM and 476 µM (mouse, acute hyperuricemia model; dose not given).
The M2 macrophages of `Cc1sc2c(c1C)C(c1ccc(Cl)cc1)=N[C@@H](CC(=O)NCCCCCCCCNC(=O)COc1cccc3c1C(=O)N(C1CCC(=O)NC1=O)C3=O)c1nnc(C)n1-2` (stereo partly shown) is reported as 7.58% and 6.61% and 7.38% and 6.87% (flow cytometry; mice, 4T1 tumour; dose not given).
Under “change in EEG Alpha1-power Fz-Cz”, `OC(CCN1CCCCC1)(c1ccccc1)C1CC2C=CC1C2` (stereo not shown) is recorded as 26.4% (resting-state EEG; healthy elderly humans; oral, 2 mg, eyes open, LS mean; reference: baseline).
`[Cl-].[Cl-].[Pt+2].[Ru+2].c1ccc(-c2nc3cc4ccccc4cc3nc2-c2ccccn2)nc1.c1cnc2c(c1)ccc1cccnc12.c1cnc2c(c1)ccc1cccnc12` has an activation enthalpy of 9.32 ± 0.717 kcal/mol (concentration not given, second substitution step, with: thiourea).
`O=C(O)CCc1nccc2c1[nH]c1ccccc12` — result for “serum uric acid”: 484 ± 86.3 µM (male mouse, acute hyperuricaemia model, serum; oral, 2 mg/kg, 4 h).
For `CC(C)c1cccc2c(-c3ccccc3)cc(-c3ccc(-c4ccc(C(=O)O)cc4)[nH]3)nc12`, the testis weight was 0.13 ± 0.02 g (CD-1 mouse, male; oral, 5 mg/kg, 7 days dosing, 4 weeks after last dose).
Under Ki67 expression, `Cc1cc(-c2nc(C(=O)Nc3cc4oc(N5CCOCC5)nc4nc3N3CC[C@@H](O)C3)co2)ccn1` is recorded as “decreased” (immunohistochemistry; mouse, A20 PCNSL model; 100 mg/kg, day 7; reference: vehicle).
The sarcomere length of `O=C(O)CNC(=O)Cc1ccccc1` is reported as 1.72 µm (ventricular cardiomyocytes, C57BL/6 mouse; dose not given, 0.448 s).
Under “change from baseline”, `N#Cc1ccc2c(c1)[C@H]1CCCN(C(=O)c3ccc4[nH]cnc4c3)[C@H]1C2` is recorded as -4.99 mg/dL (measured: LDL; human; 80 mg once daily, day 28, adjusted mean).
`Cc1n[nH]c2ccc(-c3cc(OC[C@@H](N)Cc4ccccc4)cnc3-c3ccoc3)cc12`: “log2 fold change” -1.17 (kinase binding, competitor, MIB/MS competition, measured: CKA2; Candida albicans cell lysate; 10 µM; reference: DMSO).
`NC(=O)c1cnc2[nH]ccc2c1N[C@@H]1[C@@H]2CC3C[C@H]1C[C@@](O)(C3)C2` gave a percent change of -0.12% (CD8+ effector T cells, flow cytometry; Caucasian humans, peripheral blood; 60 mg single dose; reference: baseline).
For `COc1ncc(-c2nc3c(n2C(C)C)[C@H](c2ccc(Cl)cc2)N(c2cc(Cl)cn(C)c2=O)C3=O)c(OC)n1`, “best overall response” read 7.4% (International Working Group criteria; human acute myeloid leukemia patients; oral, 45 mg, response CR, low-dose, recommended dose for expansion).
`O=C(OC(C(F)(F)F)C(F)(F)F)N1CCN(Cc2cccc(Oc3ccccc3)c2)CC1` gave a k3 of 1.18 min⁻¹ (PET blocking study; rhesus monkey, brain CB; 0.1 mg/kg, compound pretreatment, with: [18F]T-401 tracer).
`N#Cc1ccc2c(-c3ccncc3)c(-c3ccc(F)cc3)nn2c1` — result for “log2 fold change”: -0.134 (kinase binding, competitor, MIB/MS competition, measured: FPK1; Candida albicans cell lysate; 10 µM; reference: DMSO).
`[Cl-].[Cl-].[Pt+2].[Ru+2].c1ccc(-c2nccnc2-c2ccccn2)nc1.c1cnc2c(c1)ccc1cccnc12.c1cnc2c(c1)ccc1cccnc12`: “activation free energy” 21 ± 0.478 kcal/mol (chloride substitution, UV-vis kinetics; aqueous buffer; pH 7.2, 35 °C, second substitution step, with: guanosine 5'-monophosphate).
For `c1ccc(-c2n[nH]cc2-c2ccnc3ccccc23)nc1`, “log2 fold change” read 1.09 (kinase binding, competitor, MIB/MS competition, measured: CTK1; Candida albicans cell lysate; 10 µM; reference: DMSO).
`C=CCn1c(=O)c2cnc(Nc3ccc(N4CCN(C)CC4)cc3)nc2n1-c1ccc2c(n1)[C@@](O)(CC)CC2`: “target lesion reduction” 35% (human, target lesions; 400 mg 5:2 schedule, cycle three).
For `CN(C)C(=O)c1cc2cnc(Nc3ccc(N4CCNCC4)cn3)nc2n1C1CCCC1`, “normalized enrichment score” read 2.54 (RNA-seq GSEA, measured: HALLMARK_MYC_TARGETS gene set; MB002 tumour; concentration not given; reference: vehicle, direction not given).
Under “plasma Aβ1-40 change”, `C[C@H]1C[C@H]2CSC(N)=N[C@@]2(c2nc(NC(=O)c3ccc(OC(F)F)cn3)cs2)CO1` is recorded as -80.7% (healthy adults, fed, plasma; oral, 200 mg single dose, 8 h; reference: baseline, placebo-adjusted).
For `CN[C@@H]1COc2c(S(=O)(=O)NC(=O)Nc3c4c(cc5c3CCC5)CCC4)cnn2C1`, the inhibition was 89.2% (measured: IL-1β; human participants, whole blood ex vivo; 450 mg single dose, 24 h, with: LPS/ATP; reference: baseline).
The VAS score of `N=C(N)NCCC[C@H](NC(=O)[C@H](CCCNC(=N)N)NC(=O)[C@H](CCCCN)NC(=O)[C@H](CCC(N)=O)NC(=O)[C@H](CCCCN)NC(=O)[C@H](Cc1ccc(O)cc1)NC(=O)[C@@H](N)CCCCN)C(=O)N[C@@H](CO)C(=O)N[C@@H](Cc1ccc(O)cc1)C(=O)N[C@@H](CCCCN)C(=O)O` is reported as 63.3 ± 17.2 (dentin hypersensitivity patients; 10 µg/tooth, day 36 post-study visit, two teeth per subject; direction not given).
For `C=CC(=O)Nc1cc(Nc2ncc(C(=O)OC(C)C)c(-c3cn(C)c4ccccc34)n2)c(OC)cc1N(C)CCN(C)C`, “objective response rate” read 19% (EGFR NSCLC patients; 120 mg once daily, dose escalation and expansion).
Under “licking time score”, `CN(C(=O)n1cnc(-c2ccc[n+]([O-])c2)c1)C1CCCCC1` is recorded as 13.4 (mice, formalin paw test; oral, 1 mg/kg, late phase; direction not given).
`CSCCNc1nc(SCCC(F)(F)F)nc2c1ncn2[C@@H]1O[C@H](COP(=O)(O)OP(=O)(O)C(Cl)(Cl)P(=O)(O)O)[C@@H](O)[C@H]1O` gave an inhibition of 22.9 ± 27.1% (platelet aggregation, light transmission aggregometry; human patients, platelet-rich plasma; dose not given, 15 min, with: TRAP 5 µM).
`C[C@@H](NC(=O)N1C(=O)[C@H](Cc2ccnc(N)c2)[C@H]1C(=O)O)C1CCCCC1` has an aPTT AUEC of 234 (human; iv infusion, 1.5 mg/kg/h, 24 h, unit not given; reference: baseline).
`c1ccc(-c2cc(-c3ccccc3)n(Cn3ccnc3)n2)cc1` gave a wound size of 8.1 mm (rat, STZ-nicotinamide diabetic; 150 mg/kg, 360 h, full-thickness excision wound).
`Cn1cc(Nc2nc(N)nc(-c3cccc(-n4ccc5cc(C6CC6)cc(F)c5c4=O)c3CO)n2)cn1` gave an inhibition of 50.8% (CD63 upregulation, measured: CD63; basophils (CD123+ HLA-DR-), healthy humans, whole blood ex vivo; 50 mg twice daily (multiple dose), 336 h, with: anti-IgE).
Under “CHAC1 mRNA change”, `O=C(COc1ccc(Cl)cc1)NC12CC(c3nnc([C@H]4C[C@@H](OC(F)(F)F)C4)o3)(C1)C2` is recorded as -72% (healthy human, PBMC; oral, 800 mg single dose, day 2, 24 h post-dose, median, with: sodium arsenite ex vivo; reference: baseline).
For `Cc1c(Cl)c(C)[n+]([O-])c(Cl)c1-c1noc(-c2cc(O)c(O)c([N+](=O)[O-])c2)n1`, the Vmax was 0.367 ± 0.015 pmol/min/mg protein (sulfation, substrate; human liver S9).
`Cc1ccc([C@@H]2O[C@H](CO)[C@@H](O)[C@H](O)[C@H]2O)cc1Cc1ccc(-c2ccc(F)cc2)s1` — result for “change in 24-h mean serum insulin”: -4.1 µU/mL (Japanese type 2 diabetes patients; 400 mg, day 1; reference: day 0).
`N#Cc1ccc2c(c1)[C@H]1CCCN(C(=O)c3ccc4[nH]cnc4c3)[C@H]1C2` has a plasma 1,5-anhydroglucitol of 13.9 µg/mL (T2DM patients with overweight or obesity, plasma; oral, 20 mg, day 15 (360 h), multiple dosing, mean).
For `CC(C)[C@H](NC(=O)[C@H](Cc1ccc(O)cc1)NC(=O)[C@H](Cc1ccc(O)cc1)NC(=O)[C@@H]1CCCN1C(=O)[C@H](CCC(=O)O)NC(=O)[C@H](CCC(=O)O)NC(=O)[C@H](Cc1c[nH]c2ccccc12)NC(=O)[C@@H]1CCCN1C(=O)[C@@H](NC(=O)[C@H](CCC(N)=O)NC(=O)c1ccc2c(c1)C(=O)OC21c2ccc(O)cc2Oc2cc(O)ccc21)C(C)C)C(=O)N[C@H](C(=O)N[C@@H](CCCCN)C(=O)N[C@@H](CCCCN)C(=O)N[C@@H](CO)C(=O)N[C@@H](CO)C(=O)NCC(=O)NCC(N)=O)C(C)C`, “surgeons rating very much improved” read 7.1% (nerve discrimination; head and neck surgery patients; 500 mg; reference: white light).
`CC(C)NCC(O)c1ccc(O)c(O)c1` (stereo not shown) gave a sarcomere length of 1.63 µm (ventricular cardiomyocytes, C57BL/6 mouse; dose not given, 0.136 s).
For `O=C(O)/C=C/c1nccc2c3ccccc3n(Cc3ccc(Br)c4ccccc34)c12`, “serum uric acid” read 273 µM (mouse, acute hyperuricaemia model; oral, 2 mg/kg).
For `CC(C)[C@H](C(=O)Nc1ccc(C(=O)NO)cc1)c1ccccc1`, the tumour volume was 0.0368 cm³ (MRI volumetry; human, right IAC schwannoma; dose not given, day 2037 post-treatment).
Under “serum uric acid”, `Cc1ccc(S(=O)(=O)NC(=O)c2cc3ccccc3n2Cc2ccc(C3CC3)c3ccccc23)cc1` is recorded as 335 ± 189 µM (male mouse, acute hyperuricaemia model, serum; oral, 2 mg/kg, 4 h).
`[Mn+2]` — result for “CD18-low cell fraction”: 89.2 and 4.39 and 94.7 and 94.4 and 98.8 and 96.1 and 4.75 (flow cytometry; conventional CD4-high T cells, BALB/c mouse; dose not given; reference: no Mn2+).
`O=C(O)/C=C/c1nccc2c3ccccc3n(Cc3ccc(C4CC4)c4ccccc34)c12` — result for “serum uric acid”: 423 µM and 378 µM and 372 µM (mouse, acute hyperuricaemia model, serum; oral, 2 mg/kg, individual animal data).
`COc1cc(Nc2ncc3c(n2)-c2ccc(Cl)cc2C(c2c(F)cccc2OC)=NC3)ccc1C(=O)O`: “relative tumour volume T/C” 2.14 (mouse, NB-EBc1 neuroblastoma xenograft; oral, 5.2 mg/kg, day 7; reference: vehicle).
Under “disease control rate”, `COc1cc2cc(-c3ccc(CC(=O)Nc4cc(C(C)(C)C(F)(F)F)no4)cn3)cnc2cc1OC` is recorded as 67% (RECIST v1.1; RET-altered advanced solid tumour patients; oral, 40 mg once daily, phase I).
For `COc1ccc([C@@H](O)c2cc(-c3ncnc4cc(N5CCOCC5)ccc34)c(F)cc2Cl)nn1`, “objective response rate” read 0% (RECIST version 1.1; patients, advanced solid tumours; 400 mg twice daily, with: avelumab; reference: patients).
For `OC[C@H]1O[C@@H](c2ccc(Cl)c(Cc3ccc(O[C@H]4CCOC4)cc3)c2)[C@H](O)[C@@H](O)[C@@H]1O`, “systolic blood pressure change” read -0.4 mmHg (Japanese type 1 diabetes patients; 25 mg, day 7, 168 h; reference: baseline).
Under “complete response rate”, `Cc1cc(C)c(CNC(=O)c2cc(Cl)c3c(c2C)O[C@@](C)([C@H]2CC[C@H](N(C)C)CC2)O3)c(=O)[nH]1` is recorded as 25% (human relapsed/refractory NHL; dose not given, measurable baseline disease).
Under “median duration of partial response”, `COCCOc1cnc2ccn([C@H](C)c3nnc4c(F)cc(-c5cnn(C)c5)cn34)c(=O)c2c1` is recorded as 147 days (advanced solid tumour patients; dose not given).
`Cn1cc([C@H]2C[C@H]3CSC(N)=N[C@@]3(c3ccc(F)cc3F)CO2)cn1` has an Aβ42 level of 0.49 ng/g (measured: Aβx-42; Mus musculus wild-type, brain; subcutaneous, 3 mg/kg, 6 h).
For `C[C@H]1O[C@@H](O[C@H]2CC[C@@]3(C)[C@@H](CC[C@]4(C)[C@@H]3C=C[C@]35OC[C@@]6(CCC(C)(C)C[C@H]63)[C@@H](O)C[C@]54C)[C@]2(C)CO)[C@H](O)[C@@H](O[C@@H]2O[C@H](CO)[C@@H](O)[C@H](O)[C@H]2O)[C@H]1O`, the γ-GT activity was 19.8 U/L and 22.1 U/L and 24.4 U/L and 24.8 U/L and 20.4 U/L and 23.1 U/L and 30.5 U/L and 20.6 U/L (chronic-plus-binge ethanol mice, plasma; oral, 15 mg/kg/day for 7 d, 168 h).
`CCOc1cc(/C=C2\CN(C(C)=O)CC3=C2OC(N)=C(C#N)C3c2ccc(O)c(OCC)c2)ccc1O` (stereo not shown) gave a tumour volume of 0.056 ± 0.007 cm3 (rats, DMBA-induced mammary tumours; dose not given, day 42).

A few entries again:
Under “plasma Aβ1-40 change”, `C[C@H]1C[C@H]2CSC(N)=N[C@@]2(c2nc(NC(=O)c3ccc(OC(F)F)cn3)cs2)CO1` is recorded as -80.7% (healthy adults, fed, plasma; oral, 200 mg single dose, 8 h; reference: baseline, placebo-adjusted).
`O=C(O)/C=C/c1nccc2c3ccccc3n(Cc3ccc(C4CC4)c4ccccc34)c12` — result for “serum uric acid”: 423 µM and 378 µM and 372 µM (mouse, acute hyperuricaemia model, serum; oral, 2 mg/kg, individual animal data).
`[Mn+2]` — result for “CD18-low cell fraction”: 89.2 and 4.39 and 94.7 and 94.4 and 98.8 and 96.1 and 4.75 (flow cytometry; conventional CD4-high T cells, BALB/c mouse; dose not given; reference: no Mn2+).
